Results collected from several papers.
A part holds a random share of what one study measured. Positions count from the first letter of the parent shown.

Study 1 — technique: protein binding microarray; form: double-stranded DNA, one strand shown; matrix: in vitro; concentration: not given; baseline: not given; reading: higher = stronger binding
Target: Histone acetyltransferase KAT6A, winged helix 2, GST fusion (KAT6A, Homo sapiens, UniProt Q92794, residues 85-181)
Setting: 8-mer, flanks averaged, mean of 2 arrays, mostly near background
Residues (chain): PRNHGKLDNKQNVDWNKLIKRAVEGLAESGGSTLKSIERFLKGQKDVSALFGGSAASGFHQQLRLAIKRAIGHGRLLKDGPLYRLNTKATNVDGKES
Strand	E-score
CTAAACCA	0.0558
ATTAGATG	0.164
CGTTGGTC	-0.0978
TGAAGTAA	-0.113
TCCGAGAA	0.0985
AGTTACAG	-0.155
CAGAGACA	-0.109
ACGCTAGT	-0.105
CTAGGGCA	-0.0621
ACGTAAGC	-0.181
GGCCTAAA	-0.102
AATTGTGT	-0.107
TCAGGGCA	0.117
GAGAGTAC	-0.00817
ACTATAAT	-0.217
AGGCTACA	0.0166
ATAGTCAC	-0.062
GCAACGTA	-0.209
GCCGCAAA	0.167
AAGTCAGT	0.102
AAACCACG	-0.146
GAATAAAC	-0.0155
ATCGTTGG	0.00834
AGCTCTTA	-0.0571
CCGACATA	-0.0805

Study 2 — technique: competition protein-binding microarray; form: double-stranded DNA, one strand shown; matrix: in vitro; concentration: 2 µM; together with: Pho4 competitor, 0.05 µM; reading: higher = stronger binding; constant ends, left off below: … GTCTTGATTCGCTTGACGCTGCTG
Target: Centromere-binding protein 1, full length, His-tagged (CBF1, Saccharomyces cerevisiae, UniProt P17106, residues 1-351)
UniProt P17106, sequence (whole entry, looked up): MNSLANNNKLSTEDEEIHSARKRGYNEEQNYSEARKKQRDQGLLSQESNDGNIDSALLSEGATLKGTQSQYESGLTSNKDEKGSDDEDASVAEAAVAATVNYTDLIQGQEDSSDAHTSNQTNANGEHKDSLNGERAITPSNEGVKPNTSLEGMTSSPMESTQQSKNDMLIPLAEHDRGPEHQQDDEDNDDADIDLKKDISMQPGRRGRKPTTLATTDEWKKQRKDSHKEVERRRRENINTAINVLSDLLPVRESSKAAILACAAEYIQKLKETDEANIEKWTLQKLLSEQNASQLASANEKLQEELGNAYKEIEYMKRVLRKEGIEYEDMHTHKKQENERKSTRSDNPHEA
Setting: whole 60-bp probe, lowest competitor level
Strand	fluorescence intensity
CATACCCAACCTTGTTTTGTGGGTGAAGATATTTGT	82.2 a.u.
AAATTACTAAGTTGACGGGTGGGTGACGCCGTATGA	75.2 a.u.
TGATGACGCCACCATCACGTTGCGACAGCGTCTGCT	161 a.u.
GTCGCTGCGCGCGATCATGCGTCTACGCGCTTCTGT	60.1 a.u.
AAATTACTAAGTTGTCACGGCACTTACCCCGTATGA	83.6 a.u.
GTTGCTTGCTAATTGCATGATCAAGTTGGGCCGATG	73.7 a.u.
GCACTACCATGTTTGCACGTGTCGGTGTCCTCATCA	1260 a.u.
AGGAAAAGCCAAGATCATAAGCAAGAAAGTTATCCT	71.8 a.u.
CTAACGAAGGTTTGCCGGGTGGGTGACAAGCCAAGT	54 a.u.
AATTATCAGGGACCGGTCGTGCCGATAATGTCCTGC	62.4 a.u.
GTGTCAAACAATGTTTACGTTATTCTTTGGTGGGAA	78.6 a.u.
CCCACAAAGGGGCGCCGCGTGGTGATACGTACTGGA	60.3 a.u.
TCAATAAAATCAAGTCATTCATTGATACGAAGTTGA	84.3 a.u.
TTATACGTATTACATCATGTGCTCCAGCCTTGTCAG	478 a.u.
GCAGCCAGGAGCTGGCACGGCGCCAACTGAAAAGTT	44.7 a.u.
AGCCCCGCGGGATCGCACGTATGAAGCCTGGATGAA	67.1 a.u.
GGCCCAATGGAGCGTCACACTTTTAAACTTTCTAAA	89.8 a.u.
ACTTTTTCCACTACTCTCGTGGCCGGGAAGACCTGC	62.5 a.u.
ATATACTCTTTGGTGCACATGCAGGGATGGTTCCGG	145 a.u.
TCCAATTATGCGATGCATGTGCCTTCCGTTTAGAGT	134 a.u.
CGTCCTAGTGATTTTCACGTGTCTTCCATGAGGAAG	1040 a.u.
CGTCCTAGAGATTAGCACGTGTTTTCCATGAGGAAG	2360 a.u.
CATACCCAACCTTGGCTCGTGGGTGAAGATATTTGT	84.2 a.u.
GGCATTATCCTTCCGCACGTTTCTTGGATAATTCAT	135 a.u.
CATACCCAACCTTGTCACGCCACTTAAGATATTTGT	344 a.u.

Study 3 — technique: EMSA with sequencing; form: double-stranded DNA, one strand shown; matrix: in vitro; concentration: 10 and 20 nM; baseline: negative control set to 0; reading: higher = stronger binding
Target: Hepatocyte nuclear factor 3-alpha (Foxa1, Mus musculus, UniProt P35582, residues 1-468, full length assumed)
Setting: whole designed probe, mean of two concentrations, ends assumed
Constant ends, left off below: GTGAGCGGTGCCCATTGATGGGGAAC … TTTCACTGGGATCGTGGGGAC
Construct (chain): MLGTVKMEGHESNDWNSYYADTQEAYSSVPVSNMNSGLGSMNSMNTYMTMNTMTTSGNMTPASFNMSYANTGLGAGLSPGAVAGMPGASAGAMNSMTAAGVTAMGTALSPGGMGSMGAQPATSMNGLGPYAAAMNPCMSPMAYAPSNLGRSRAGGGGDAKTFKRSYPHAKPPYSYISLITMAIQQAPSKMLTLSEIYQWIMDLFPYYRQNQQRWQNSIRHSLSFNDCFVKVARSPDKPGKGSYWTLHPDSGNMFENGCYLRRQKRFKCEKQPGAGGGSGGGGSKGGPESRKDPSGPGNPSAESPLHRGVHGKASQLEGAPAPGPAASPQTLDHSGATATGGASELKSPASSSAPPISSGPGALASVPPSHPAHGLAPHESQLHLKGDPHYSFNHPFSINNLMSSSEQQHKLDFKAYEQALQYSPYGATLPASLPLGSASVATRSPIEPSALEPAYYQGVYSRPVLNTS
Strand	normalised bound fraction
GTAATTCATATAACAATTAAGTACGCACTTTTGAAAAATGACATCTAATTAATAGAAACTCTTCCAAAGCAACAAGTGGGTAGCAAAACTAAGTAAACAAGAGTGCTTAAAAATGGAACTCCTGGAATGCTTTTAAACCATGTTACTTGCTTATCATTCACTGATTATTCCTGGTTTCTCTTTTCTTTCTCTA	0.407 ratio
GTCCTTAATGTGTTTGTTTTTAGGACTCAAAAACGAGTCTTGAATCTTTAGAAAAGTAGAAAAATTCTCTCCTACATGCCAACAATTTTGCATGTTTACACTGTCCAATTTACATTTTTTCAAGGTATTAGTGCAAAAAGATAGTGAGAAGTGGGTAATTTGTTTATTTCTAAACAAAAAATCCTCACAGATT	0.505 ratio
GGCATTCCTCCAGTGTACTTCATGGCTTGAATTCAAAATCATGTTCCAAGGTAAATAAATCTGCTCCATCTTGTTTATCCAAAGGGCAGTTTGGTGTTGACTTAGTTCTGCTCTTTTTTGGTAACTTATTCAAGAAAAGCAAAGAGCAGAAAATTCGTGGTGTTTTAATCCAGGGAGAAGGAGCGGGTGGAAG	0.351 ratio
TAGAATTTGAATTTAACATCATACTTTTGTTTTCCTTGATGAAAATCTAGACCTATCCAACTTAAGTCTCAGGAATTAAAACCTTTACTGTATGTTTACTCTGTCTTGCAAATCATTGTTGCACTTTTTAAAACTTTGAAATAATTTATTTTTATTCATCAGGTGCAGATGAGGTGATGTAATTGCAGAATTT	0.27 ratio
ATCTTCCCCCTCTTCCTTGCCCCACCAGCTCACCTTCCCGGGTTATTTGCAGATAGGAAAATAAATAAAGCCGGCATTCGTGATGAATCATGACGCGCATACTGCTGTTTGCTCTGGATCTAACATGGTCCTTTGGCGACGCCAGGCTCCGGGAGAGCAAAGCACCGTGTCAGGGCCATGATCCGGGGTGGCC	0.367 ratio
GAGAGCCCTGGAAGCTCAGAAGAGGCAAGAGGGGCCTACTTCTCCCTTGTTTGGGCTTTGTTTGCTAAATACCAATATTAGATTAGGCAACTCTGCAAACAAAACCAAGGCCTGGCCAGCTGCCCAGGGTGTTTAAAGTCCAAGACATGAAGGCAGGACGTGTGCCCGTGGACTTGCACACGCAAGCAGGCCG	0.397 ratio
TAAAAGCATCCTGTGAATCAAAAGAAGATGGCAGATTTTCTGAATACTACTAAGGACTTCATTTAGCATATGCACAATCCTATTAAAAGAAAAAGTAATCTAGTAAATAAGCAAAAATGTATTATCATCCTTCCTGTGTCAAGAGAGTACTCCATTTATACAGCCATAGAAAACTGCAATGAAGATAGGTAAT	0.00674 ratio
CATCAGCAGGCTTCCTCTGAGAAGTTTCCCATCGACGTATCCTCTTTCAAGGGCCTTCCAAGCATGGAGACATTTCCTCAGAGATAATAAGAGTAAACAGGGAACTAAGGCCTCCCAGACCTTGACAGCCTCTGCCTGAGTGCACAGATGCAGCTGGGCTGTGGCAGCTCCGACTCGCAGAGCCAGGCGCCGC	0.109 ratio

Study 4 — target: CCNB2, cyclin fold, Cln2 fusion (human); technique: yeast growth competition, sequencing; matrix: yeast; setting: weak parent motif; baseline: not given; reading: higher = stronger binding
Starting sequence: INSM1 docking peptide (human); PKAIRKLHFEDEV
Variant	normalised enrichment score
E10P	0.417
H8G	0.227
F9K	-0.182
H8V	0.234
L7F	0.156
L7I	0.645
E10H	0.0784
A3E	0.553
E10T	0.322
R5L	-0.0945
R5I	-0.293
D11E	0.406
E12N	0.29
K6L	0.0706
A3I	1.33
H8I	0.259

Study 5 — technique: RNA Bind-n-Seq; form: RNA; matrix: in vitro; concentration: not given; setting: RNA with constant flanks, ends assumed; baseline: input RNA pool; reading: higher = stronger binding
Target: RING finger protein unkempt homolog, zinc fingers 1-6, GST-SBP tag (UNK, Homo sapiens, UniProt Q9C0B0, residues 30-357)
Constant ends, left off below: GGGAGUUCUACAGUCCGACGAUC … CAACAGAGGAUUGAGCAUCA
Construct (chain): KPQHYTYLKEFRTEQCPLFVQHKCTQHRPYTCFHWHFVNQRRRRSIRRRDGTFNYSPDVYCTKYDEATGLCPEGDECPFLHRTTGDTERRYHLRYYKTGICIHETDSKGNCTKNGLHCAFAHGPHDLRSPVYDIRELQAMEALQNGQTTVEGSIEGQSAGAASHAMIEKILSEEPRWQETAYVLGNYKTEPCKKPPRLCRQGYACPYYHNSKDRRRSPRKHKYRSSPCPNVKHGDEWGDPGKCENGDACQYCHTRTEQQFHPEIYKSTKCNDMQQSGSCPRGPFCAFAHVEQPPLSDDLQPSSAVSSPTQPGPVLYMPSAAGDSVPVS
Strand	bound/input enrichment
AGUUUCUCCAGAGGAAGCAAUCAAAUGUGAGGACAAAUUCACAAAAUCCAAAACUGUUUACCGCAUUCUUCGCCAUGUUGCUGAGGUAUUAGAAUAUACCAAGGAUGAGCAGCUGGAGAG	0.139 ratio
UUGAGACCUUGUGUACUAAGAGCAAGGAAGUAUAGCUAAGAUGUCUAGAUUAUUUAUAUGCCGUAUGGUGGGGAGUGGGGCUGCAAGGAAGGGGGCUGACAUUGUAAAUGAGAAAAUCAG	11.5 ratio
ACUGCAGUGUCCCGGAGCCUGCGUGUGGUGGGCAAGCUCCUCAAAUGGUAUCUCACAGGGAACCGGGGAGUCUUGAAAACGCAGCUUCGGCAGUAGGAACAUGAACCUCUUACCUAAAAG	0.158 ratio
GGGCUCCAGGACUCUCAAGCUGGCAUCAUAUUAUUUGUUAUUUAAAAGACACAAUUAUUUCCGGCCGAUCUUUUUUUUUAAUGAGGUGGGGUAAGGCUGUGACUUUUGAUCUAAACAAAA	0.219 ratio
UGAUUGGAUUAUUUGAAUGAAAUUUGCACACAACGAUUGAGUUGAACCUGCUUACUAUUUUCCGGAUUGUUUUAUUGUACUAACAACUUUUAAAGACUAUGAAGUAAAUAUUUCACGUAG	0.442 ratio
ACCAUGAUGGAGGGUCAACUGAUCUCCGUAGCAGCCAGGGCAAAGUGAAUGACCUCAGAAACCCGGAAUUCUUGCAAAGACACUGCCUAAUAGUGUGAUUUUGAAACCUUGAUACAAAAG	0.334 ratio
ACAAAGCAGCUGACAGAAAUGCUUCCCAGCAUCCUCAACCAGCUUGGUGCAGACAGCCUGACCCGUUUAAGGAGACUGGCUGAAGCUCUGCCCAAACAAUCUGUGGAUGGAAAAGCACCC	0.0846 ratio
GAAUCUUCUGACAAUGAAGGUAGGCGUACAACUAGGAGAUUGCUGUCACGGAUAGCUUCCCGCAUGUCAUCUACUUUUUUCUCACGAAGAUCUAGUCAAGAUUCCUUGAAUACAAGAUCU	0.117 ratio

A few entries again (study 2):
Strand	fluorescence intensity
GTTGCTTGCTAATTGCATGATCAAGTTGGGCCGATG	73.7 a.u.
CCCACAAAGGGGCGCCGCGTGGTGATACGTACTGGA	60.3 a.u.
TGATGACGCCACCATCACGTTGCGACAGCGTCTGCT	161 a.u.
GTCGCTGCGCGCGATCATGCGTCTACGCGCTTCTGT	60.1 a.u.
AAATTACTAAGTTGACGGGTGGGTGACGCCGTATGA	75.2 a.u.
AGGAAAAGCCAAGATCATAAGCAAGAAAGTTATCCT	71.8 a.u.
GCAGCCAGGAGCTGGCACGGCGCCAACTGAAAAGTT	44.7 a.u.
GGCCCAATGGAGCGTCACACTTTTAAACTTTCTAAA	89.8 a.u.
CATACCCAACCTTGTTTTGTGGGTGAAGATATTTGT	82.2 a.u.
CATACCCAACCTTGGCTCGTGGGTGAAGATATTTGT	84.2 a.u.
CTAACGAAGGTTTGCCGGGTGGGTGACAAGCCAAGT	54 a.u.
